Published values of several laboratories.
Each numbered part is a random draw from the data of one study; scales do not carry over between parts. Positions count from the first letter of the parent shown.

Series 1 — target: CCND3, cyclin fold, Cln2 fusion (human); technique: yeast growth competition, sequencing; medium: yeast; notes: weak parent motif; baseline: not given; reading: higher = stronger binding
Parent: DBF4B docking peptide (human); LGYLYLLLTQSLW
Change | normalised enrichment score
LGYLYLLATQSLW [L8A] | 0.275
LGYLYLLLTQSLA [W13A] | -0.377
LGYLYLLLTQALW [S11A] | 0.0868
LGYLYALLTQSLW [L6A] | 0.397
LGYLYLLLTASLW [Q10A] | -0.223
AGYLYLLLTQSLW [L1A] | 0.42
LGYAYLLLTQSLW [L4A] | -0.0451

Series 2 — technique: protein-binding microarray; form: double-stranded DNA, one strand shown; medium: in vitro; concentration: 940 nM top; notes: 60-bp whole probe; with: salmon DNA 0.4 mg/ml; baseline: random background probes; reading: higher = stronger binding; constant ends, left off below: GCCTAGCAC … GTCTTGATTCGCTTGACGCTGCTG
Target: Interferon regulatory factor 5, full length, phosphomimetic (IRF5, Homo sapiens, UniProt Q13568-2, residues 1-514, S451D/S453D/S456D/S462D)
Sequence | fitted relative affinity
GACGGTATAGACACTGGGGACGTGCTA | -0.444 z-score
GACGGACTGGACACTGCGGACGTGCTA | -0.373 z-score
TCATGTTTCTCAACCAGACTGTGCTAG | 0.788 z-score
TTAGAACTGCGGACTGGATTAGTGCTA | -0.663 z-score
GACGGTTTCGGTTTCGGGGCGTGCTAG | 14.7 z-score
TTAGATCTCAGTTACGATTAGTGCTAG | 0.522 z-score
GACGGTTTCGGGTATCGTGACGTGCTA | 9.14 z-score
TCATCTCTAACCTCTCTAACTGTGCTA | 1.53 z-score
TTAGATCTCAGTCTCCATTAGTGCTAG | 0.704 z-score
GAAGGTCTCGGACTGGGGACGTGCTAG | 0.307 z-score
TTAGGACTGGGTTTCAGTTAGTGCTAG | 1.83 z-score
GACGTTTTCGGTCTCGGGACGTGCTAG | 4.18 z-score
TTAGATCTCAGTATCGATTTGTGCTAG | 4.16 z-score
TTAGGTATGCTTATCCTTTAGTGCTAG | -0.235 z-score
GACGGACTGCTTATACTGACGTGCTAG | -0.134 z-score
ATTTCTTTCTAATTCAAAGTGTGCTAG | 1.06 z-score
GACCATTTCAGTATCGAGACGTGCTAG | 2.79 z-score
GACGGTTTCGACACTGGGCACGTGCTA | 6.88 z-score
GACGATATCGGGACTCGAGACGTGCTA | -0.0671 z-score

Series 3 — technique: aptamer microarray, sandwich; form: DNA with 2'F-ANA; medium: in vitro; concentration: 200 nM; with: Cy3 exosite-II aptamer, 400 nM; reading: higher = stronger binding; sequence: GGTTGGTGTGGTTGG
Target: Prothrombin, mature alpha-thrombin (F2, Homo sapiens, UniProt P00734)
Notes: whole 15-mer aptamer, many near background
Modification | mean fluorescence intensity [a.u.]
2'F-ANA at 2 6 7 10 11 12 14 15 | 124
2'F-ANA at 2 7 9 10 11 | 128
2'F-ANA at 1 2 9 10 12 13 14 15 | 49.3
2'F-ANA at 1 3 4 5 7 9 14 | 48.5
2'F-ANA at 2 4 5 6 7 12 13 15 | 80.3
2'F-ANA at 1 3 6 7 8 9 11 12 13 14 15 | 109
2'F-ANA at 1 2 3 8 9 10 11 | 62.6
2'F-ANA at 3 4 5 7 9 10 13 14 | 49.3
2'F-ANA at 2 3 6 10 12 14 | 317
2'F-ANA at 1 2 4 5 7 14 | 46.9
2'F-ANA at 1 2 3 5 6 7 11 14 15 | 44.4
2'F-ANA at 1 3 4 8 9 12 13 14 15 | 73.8
2'F-ANA at 1 3 5 7 8 9 10 11 14 | 45.6
2'F-ANA at 1 2 4 6 7 11 12 13 14 | 66.3
2'F-ANA at 1 2 4 11 13 14 15 | 51.7
2'F-ANA at 2 3 4 5 6 7 8 9 11 14 15 | 82.6
2'F-ANA at 2 3 4 6 7 9 10 11 12 | 246
2'F-ANA at 1 2 3 8 9 11 13 14 15 | 69.7
2'F-ANA at 1 3 8 11 12 | 522
2'F-ANA at 1 6 7 8 10 12 13 15 | 68.5
2'F-ANA at 1 2 5 7 9 10 11 12 13 14 | 48.9
2'F-ANA at 3 4 8 9 11 13 14 | 262
2'F-ANA at 1 3 9 10 11 13 | 73.2

Series 4 — technique: universal PBM; form: double-stranded DNA, one strand shown; medium: in vitro; concentration: 600 nM; reading: higher = stronger binding
Target: Sal-like protein 4, full length isoform A (SALL4, Homo sapiens, UniProt Q9UJQ4, residues 1-1053)
UniProt Q9UJQ4, sequence (whole entry, looked up): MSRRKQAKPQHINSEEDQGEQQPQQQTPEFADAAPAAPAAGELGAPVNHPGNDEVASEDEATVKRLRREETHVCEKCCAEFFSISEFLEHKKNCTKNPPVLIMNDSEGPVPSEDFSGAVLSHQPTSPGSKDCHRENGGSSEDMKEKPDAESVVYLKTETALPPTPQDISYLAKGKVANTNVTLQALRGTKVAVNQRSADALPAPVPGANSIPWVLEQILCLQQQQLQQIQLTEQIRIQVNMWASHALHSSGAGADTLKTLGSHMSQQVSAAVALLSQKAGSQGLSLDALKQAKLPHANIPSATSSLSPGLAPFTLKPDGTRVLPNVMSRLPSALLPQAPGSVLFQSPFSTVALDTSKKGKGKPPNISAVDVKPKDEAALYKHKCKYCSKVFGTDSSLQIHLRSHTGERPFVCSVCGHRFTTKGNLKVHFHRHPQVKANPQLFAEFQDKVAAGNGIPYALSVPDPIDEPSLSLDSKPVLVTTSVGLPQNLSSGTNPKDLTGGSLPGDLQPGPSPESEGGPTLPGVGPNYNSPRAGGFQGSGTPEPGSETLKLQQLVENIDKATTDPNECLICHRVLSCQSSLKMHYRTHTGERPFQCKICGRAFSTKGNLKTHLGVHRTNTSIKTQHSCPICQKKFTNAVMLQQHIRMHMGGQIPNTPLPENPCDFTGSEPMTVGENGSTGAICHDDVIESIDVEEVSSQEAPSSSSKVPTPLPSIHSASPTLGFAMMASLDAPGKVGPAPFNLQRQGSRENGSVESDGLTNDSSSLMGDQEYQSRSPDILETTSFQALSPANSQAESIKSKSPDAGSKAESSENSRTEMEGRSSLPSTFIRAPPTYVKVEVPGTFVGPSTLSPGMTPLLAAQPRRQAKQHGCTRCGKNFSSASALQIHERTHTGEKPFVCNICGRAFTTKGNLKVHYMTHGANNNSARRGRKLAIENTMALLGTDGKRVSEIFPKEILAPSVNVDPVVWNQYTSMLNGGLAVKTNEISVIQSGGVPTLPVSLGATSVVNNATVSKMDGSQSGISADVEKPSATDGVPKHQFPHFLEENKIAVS
Notes: 8-mer, flanks averaged, mean of replicates
Sequence | E-score
ACTAGTTG | -0.0389
AAACTTCA | 0.242
ACTGCTAA | 0.105
AGACACAA | 0.179
CCTACCCC | -0.324
AGGTGTGA | -0.0238
TCGGAAAA | 0.188
AAAGTGGG | -0.029
CAACGTTG | 0.197
AGACACCA | 0.0504
ATCGGCCA | -0.188
AAATTATA | 0.389
ATGACCGG | -0.221
CTTAATAC | 0.208
ATCCGCCC | -0.267
CCATAGAG | -0.0391
AGGAATTA | 0.269
CATTGCCG | -0.0949
CGATTCCA | -0.0106

Repeated from above (series 3):
Modification | mean fluorescence intensity [a.u.]
2'F-ANA at 3 4 8 9 11 13 14 | 262
2'F-ANA at 1 3 6 7 8 9 11 12 13 14 15 | 109
2'F-ANA at 1 2 5 7 9 10 11 12 13 14 | 48.9
2'F-ANA at 3 4 5 7 9 10 13 14 | 49.3
2'F-ANA at 2 3 6 10 12 14 | 317
2'F-ANA at 1 2 3 5 6 7 11 14 15 | 44.4
2'F-ANA at 1 2 4 6 7 11 12 13 14 | 66.3
2'F-ANA at 1 2 3 8 9 11 13 14 15 | 69.7
2'F-ANA at 1 3 5 7 8 9 10 11 14 | 45.6
2'F-ANA at 2 6 7 10 11 12 14 15 | 124
2'F-ANA at 1 6 7 8 10 12 13 15 | 68.5
